Results pooled from the literature.
Compare with care: the assays were run in different laboratories. Numbers after ± are the reported error.
T1: STAG2/RAD21 STAG2 80-1060, RAD21 281-420 (Homo sapiens); chain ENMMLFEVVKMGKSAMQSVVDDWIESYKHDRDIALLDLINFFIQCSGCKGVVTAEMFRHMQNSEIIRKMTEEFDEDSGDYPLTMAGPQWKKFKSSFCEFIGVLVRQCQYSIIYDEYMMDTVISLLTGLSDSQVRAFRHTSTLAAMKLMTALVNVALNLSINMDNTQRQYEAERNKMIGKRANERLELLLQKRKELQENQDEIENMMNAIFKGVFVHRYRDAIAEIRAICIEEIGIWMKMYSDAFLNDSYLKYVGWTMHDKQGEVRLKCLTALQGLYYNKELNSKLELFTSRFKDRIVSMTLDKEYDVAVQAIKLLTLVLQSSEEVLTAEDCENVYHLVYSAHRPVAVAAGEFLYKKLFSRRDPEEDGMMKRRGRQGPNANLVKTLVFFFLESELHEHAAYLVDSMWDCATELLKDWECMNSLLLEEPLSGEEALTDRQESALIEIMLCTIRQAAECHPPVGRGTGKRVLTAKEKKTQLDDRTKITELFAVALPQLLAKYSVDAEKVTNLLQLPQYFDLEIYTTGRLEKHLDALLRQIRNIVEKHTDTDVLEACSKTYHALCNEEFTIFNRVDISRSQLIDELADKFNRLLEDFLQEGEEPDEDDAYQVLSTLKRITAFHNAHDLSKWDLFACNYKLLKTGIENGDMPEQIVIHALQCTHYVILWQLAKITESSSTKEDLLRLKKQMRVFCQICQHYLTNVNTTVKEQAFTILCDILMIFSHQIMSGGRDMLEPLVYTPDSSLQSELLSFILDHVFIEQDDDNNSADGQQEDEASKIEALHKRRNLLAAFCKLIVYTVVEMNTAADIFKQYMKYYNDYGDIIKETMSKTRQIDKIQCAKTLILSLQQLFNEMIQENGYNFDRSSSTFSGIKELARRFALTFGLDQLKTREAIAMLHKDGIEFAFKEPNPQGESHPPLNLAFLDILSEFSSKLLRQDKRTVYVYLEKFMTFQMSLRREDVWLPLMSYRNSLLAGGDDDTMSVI; chain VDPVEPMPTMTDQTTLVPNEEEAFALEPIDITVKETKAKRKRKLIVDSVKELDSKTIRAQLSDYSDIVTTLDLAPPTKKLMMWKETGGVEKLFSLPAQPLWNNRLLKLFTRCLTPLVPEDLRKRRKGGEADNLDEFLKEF
B1: Fmnl3 555-954 N646A (Mus musculus, UniProt Q6ZPF4); chain GLSAIRIKKPIKTKFRLPVFNWTALKPNQINGTVFSELDDEKILEDLDLDRFEELFKTKAQGPALDLICSKNKTAQKAASKVTLLEANRAKALAITLRKAGRSAEEICRAIHTFDLQTLPVDFVECLMRFLPTEAEVKLLRQYERERQPLEELAAEDRFMLLFSKVERLTQRMAGMAFLGNFQDNLQMLTPQLNAIIAASASVKSSQKLKQMLEIILALGNYMNSSKRGAVYGFKLQSLDLLLDTKSTDRKMTLLHFIALTVKEKYPELANFWQELHFVEKAAAVSLENVLLDVKELGRGMELIRRECSIHDNSVLRNFLSTNEGKLDKLQRDAKTAEEAYNAVVRYFGESPKTTPPSVFFPVFVRFIRSYKEAEQENEARKKQEEVMREKQLAQEAKKL
B2: rof 1-84 (Escherichia coli, UniProt P0AFW8); chain MNDTYQPINCDDYDNLELACQHHLMLTLELKDGEKLQAKASDLVSRKNVEYLVVEAAGETRELRLDKITSFSHPEIGTVVVSES
B3: FBN1 147-489 (Homo sapiens, UniProt P35555); chain QPVCESGCLNGGRCVAPNRCACTYGFTGPQCERDYRTGPCFTVISNQMCQGQLSGIVCTKTLCCATVGRAWGHPCEMCPAQPHPCRRGFIPNIRTGACQDVDECQAIPGLCQGGNCINTVGSFECKCPAGHKLNEVSQKCEDIDECSTIPGICEGGECTNTVSSYFCKCPPGFYTSPDGTRCIDVRPGYCYTALTNGRCSNQLPQSITKMQCCCDAGRCWSPGVTVAPEMCPIRATEDFNKLCSVPMVIPGRPEYPPPPLGPIPPVLPVPPGFPPGPQIPVPRPPVEYLYPSREPPRVLPVNVTDYCQLVRYLCQNGRCIPTPGSYRCECNKGFQLDLRGECI
B4: colicin N T and R domains (Escherichia coli); chain MGSNGADNAHNNAFGGGKNPGIGNTSGAGSNGSASSNRGNSNGWSWSNKPHKNDGFHSDGSYHITFHGDNNSKPKPGGNSGNRGNNGDGASAKVGEITITPDNSKPGRYISSNPEYSLLAKLIDAESIKGTEVYTFHTRKGQYVKVTVPDSNIDKMRVDYVNWKGPKYNNKLVKRFVSQFLL
B5: Fmnl3 555-954 R570A (Mus musculus, UniProt Q6ZPF4); chain GLSAIRIKKPIKTKFALPVFNWTALKPNQINGTVFSELDDEKILEDLDLDRFEELFKTKAQGPALDLICSKNKTAQKAASKVTLLEANRAKNLAITLRKAGRSAEEICRAIHTFDLQTLPVDFVECLMRFLPTEAEVKLLRQYERERQPLEELAAEDRFMLLFSKVERLTQRMAGMAFLGNFQDNLQMLTPQLNAIIAASASVKSSQKLKQMLEIILALGNYMNSSKRGAVYGFKLQSLDLLLDTKSTDRKMTLLHFIALTVKEKYPELANFWQELHFVEKAAAVSLENVLLDVKELGRGMELIRRECSIHDNSVLRNFLSTNEGKLDKLQRDAKTAEEAYNAVVRYFGESPKTTPPSVFFPVFVRFIRSYKEAEQENEARKKQEEVMREKQLAQEAKKL
B6: IRF1 (Homo sapiens, UniProt P10914); sequence looked up; chain MPITRMRMRPWLEMQINSNQIPGLIWINKEEMIFQIPWKHAAKHGWDINKDACLFRSWAIHTGRYKAGEKEPDPKTWKANFRCAMNSLPDIEEVKDQSRNKGSSAVRVYRMLPPLTKNQRKERKSKSSRDAKSKAKRKSCGDSSPDTFSDGLSSSTLPDDHSSYTVPGYMQDLEVEQALTPALSPCAVSSTLPDWHIPVEVVPDSTSDLYNFQVSPMPSTSEATTDEDEEGKLPEDIMKLLEQSEWQPTNVDGKGYLLNEPGVQPTSVYGDFSCKEEPEIDSPGGDIGLSLQRVFTDLKNMDATWLDSLLTPVRLPSIQAIPCAP
B7: Fmnl3 555-954 K645A (Mus musculus, UniProt Q6ZPF4); chain GLSAIRIKKPIKTKFRLPVFNWTALKPNQINGTVFSELDDEKILEDLDLDRFEELFKTKAQGPALDLICSKNKTAQKAASKVTLLEANRAANLAITLRKAGRSAEEICRAIHTFDLQTLPVDFVECLMRFLPTEAEVKLLRQYERERQPLEELAAEDRFMLLFSKVERLTQRMAGMAFLGNFQDNLQMLTPQLNAIIAASASVKSSQKLKQMLEIILALGNYMNSSKRGAVYGFKLQSLDLLLDTKSTDRKMTLLHFIALTVKEKYPELANFWQELHFVEKAAAVSLENVLLDVKELGRGMELIRRECSIHDNSVLRNFLSTNEGKLDKLQRDAKTAEEAYNAVVRYFGESPKTTPPSVFFPVFVRFIRSYKEAEQENEARKKQEEVMREKQLAQEAKKL
B8: HNRNPH1 192-280 (Homo sapiens, UniProt P31943); chain RTHYDPPRKLMAMQRPGPYDRPGAGRGYNSIGRGAGFERMRRGAYGGGYGGYDDYNGYNDGYGFGSDRFGRDLNYCFSGMSDHRYGDGG
UniProt O95786, sequence (whole entry, unmodified, looked up): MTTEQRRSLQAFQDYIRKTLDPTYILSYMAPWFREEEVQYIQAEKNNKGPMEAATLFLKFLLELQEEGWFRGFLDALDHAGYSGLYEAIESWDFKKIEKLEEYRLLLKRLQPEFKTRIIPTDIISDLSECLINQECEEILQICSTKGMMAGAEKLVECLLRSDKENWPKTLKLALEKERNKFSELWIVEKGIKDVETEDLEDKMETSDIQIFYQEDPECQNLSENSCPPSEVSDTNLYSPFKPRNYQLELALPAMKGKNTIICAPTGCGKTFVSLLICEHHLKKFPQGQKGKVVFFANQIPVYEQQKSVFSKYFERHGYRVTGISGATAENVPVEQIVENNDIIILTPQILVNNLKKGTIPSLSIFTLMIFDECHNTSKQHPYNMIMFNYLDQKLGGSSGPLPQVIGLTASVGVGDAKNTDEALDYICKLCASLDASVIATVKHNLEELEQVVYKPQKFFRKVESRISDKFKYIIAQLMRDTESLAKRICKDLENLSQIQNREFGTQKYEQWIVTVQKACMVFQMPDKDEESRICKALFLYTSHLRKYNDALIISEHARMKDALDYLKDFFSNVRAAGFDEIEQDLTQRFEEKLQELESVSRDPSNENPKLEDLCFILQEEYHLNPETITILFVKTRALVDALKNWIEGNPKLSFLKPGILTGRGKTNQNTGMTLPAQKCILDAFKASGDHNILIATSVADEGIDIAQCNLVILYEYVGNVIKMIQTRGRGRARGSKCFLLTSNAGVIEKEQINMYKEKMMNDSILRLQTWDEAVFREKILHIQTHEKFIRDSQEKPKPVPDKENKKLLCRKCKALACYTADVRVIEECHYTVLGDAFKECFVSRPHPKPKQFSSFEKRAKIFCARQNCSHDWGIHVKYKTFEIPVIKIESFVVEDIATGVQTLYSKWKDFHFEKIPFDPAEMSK
UniProt Q0P543, sequence (whole entry, looked up): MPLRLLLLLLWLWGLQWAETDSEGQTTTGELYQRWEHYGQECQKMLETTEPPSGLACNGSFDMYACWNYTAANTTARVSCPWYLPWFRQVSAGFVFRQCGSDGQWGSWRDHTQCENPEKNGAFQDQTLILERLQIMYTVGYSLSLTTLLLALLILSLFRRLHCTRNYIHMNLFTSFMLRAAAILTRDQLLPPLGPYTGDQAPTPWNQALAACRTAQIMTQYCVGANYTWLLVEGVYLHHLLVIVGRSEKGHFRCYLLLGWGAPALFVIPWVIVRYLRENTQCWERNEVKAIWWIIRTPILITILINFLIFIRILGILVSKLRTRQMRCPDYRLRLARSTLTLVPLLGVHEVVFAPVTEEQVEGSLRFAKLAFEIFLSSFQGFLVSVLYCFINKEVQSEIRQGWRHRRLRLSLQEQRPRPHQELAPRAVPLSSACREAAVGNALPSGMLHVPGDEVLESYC
UniProt P78310, sequence (whole entry, looked up): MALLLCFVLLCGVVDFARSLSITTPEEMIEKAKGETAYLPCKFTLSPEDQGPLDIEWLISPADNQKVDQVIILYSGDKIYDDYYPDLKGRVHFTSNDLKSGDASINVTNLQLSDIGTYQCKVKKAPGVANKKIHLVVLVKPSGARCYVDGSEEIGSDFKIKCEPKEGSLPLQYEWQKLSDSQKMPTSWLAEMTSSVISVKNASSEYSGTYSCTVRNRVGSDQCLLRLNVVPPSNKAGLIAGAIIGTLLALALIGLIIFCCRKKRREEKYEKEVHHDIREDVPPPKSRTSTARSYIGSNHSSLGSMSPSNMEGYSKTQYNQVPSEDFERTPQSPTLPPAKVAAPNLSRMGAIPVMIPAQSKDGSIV
UniProt Q8VQF4, sequence (whole entry, looked up): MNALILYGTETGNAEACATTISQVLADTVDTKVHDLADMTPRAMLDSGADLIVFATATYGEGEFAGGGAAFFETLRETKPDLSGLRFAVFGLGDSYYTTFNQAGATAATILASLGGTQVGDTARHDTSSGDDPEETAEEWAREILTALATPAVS
UniProt P28861, sequence (whole entry, looked up): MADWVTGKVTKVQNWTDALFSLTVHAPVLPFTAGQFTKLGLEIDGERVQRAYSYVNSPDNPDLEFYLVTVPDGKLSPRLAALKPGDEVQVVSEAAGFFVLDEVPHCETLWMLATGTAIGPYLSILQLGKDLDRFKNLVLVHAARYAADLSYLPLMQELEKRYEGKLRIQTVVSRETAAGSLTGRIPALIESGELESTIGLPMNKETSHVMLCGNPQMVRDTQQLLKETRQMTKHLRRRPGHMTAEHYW
UniProt Q12692, sequence (whole entry, looked up): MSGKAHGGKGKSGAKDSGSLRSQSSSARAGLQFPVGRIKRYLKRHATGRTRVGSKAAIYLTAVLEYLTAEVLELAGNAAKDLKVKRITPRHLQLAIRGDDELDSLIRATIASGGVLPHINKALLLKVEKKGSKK
UniProt P51532, sequence (whole entry, looked up): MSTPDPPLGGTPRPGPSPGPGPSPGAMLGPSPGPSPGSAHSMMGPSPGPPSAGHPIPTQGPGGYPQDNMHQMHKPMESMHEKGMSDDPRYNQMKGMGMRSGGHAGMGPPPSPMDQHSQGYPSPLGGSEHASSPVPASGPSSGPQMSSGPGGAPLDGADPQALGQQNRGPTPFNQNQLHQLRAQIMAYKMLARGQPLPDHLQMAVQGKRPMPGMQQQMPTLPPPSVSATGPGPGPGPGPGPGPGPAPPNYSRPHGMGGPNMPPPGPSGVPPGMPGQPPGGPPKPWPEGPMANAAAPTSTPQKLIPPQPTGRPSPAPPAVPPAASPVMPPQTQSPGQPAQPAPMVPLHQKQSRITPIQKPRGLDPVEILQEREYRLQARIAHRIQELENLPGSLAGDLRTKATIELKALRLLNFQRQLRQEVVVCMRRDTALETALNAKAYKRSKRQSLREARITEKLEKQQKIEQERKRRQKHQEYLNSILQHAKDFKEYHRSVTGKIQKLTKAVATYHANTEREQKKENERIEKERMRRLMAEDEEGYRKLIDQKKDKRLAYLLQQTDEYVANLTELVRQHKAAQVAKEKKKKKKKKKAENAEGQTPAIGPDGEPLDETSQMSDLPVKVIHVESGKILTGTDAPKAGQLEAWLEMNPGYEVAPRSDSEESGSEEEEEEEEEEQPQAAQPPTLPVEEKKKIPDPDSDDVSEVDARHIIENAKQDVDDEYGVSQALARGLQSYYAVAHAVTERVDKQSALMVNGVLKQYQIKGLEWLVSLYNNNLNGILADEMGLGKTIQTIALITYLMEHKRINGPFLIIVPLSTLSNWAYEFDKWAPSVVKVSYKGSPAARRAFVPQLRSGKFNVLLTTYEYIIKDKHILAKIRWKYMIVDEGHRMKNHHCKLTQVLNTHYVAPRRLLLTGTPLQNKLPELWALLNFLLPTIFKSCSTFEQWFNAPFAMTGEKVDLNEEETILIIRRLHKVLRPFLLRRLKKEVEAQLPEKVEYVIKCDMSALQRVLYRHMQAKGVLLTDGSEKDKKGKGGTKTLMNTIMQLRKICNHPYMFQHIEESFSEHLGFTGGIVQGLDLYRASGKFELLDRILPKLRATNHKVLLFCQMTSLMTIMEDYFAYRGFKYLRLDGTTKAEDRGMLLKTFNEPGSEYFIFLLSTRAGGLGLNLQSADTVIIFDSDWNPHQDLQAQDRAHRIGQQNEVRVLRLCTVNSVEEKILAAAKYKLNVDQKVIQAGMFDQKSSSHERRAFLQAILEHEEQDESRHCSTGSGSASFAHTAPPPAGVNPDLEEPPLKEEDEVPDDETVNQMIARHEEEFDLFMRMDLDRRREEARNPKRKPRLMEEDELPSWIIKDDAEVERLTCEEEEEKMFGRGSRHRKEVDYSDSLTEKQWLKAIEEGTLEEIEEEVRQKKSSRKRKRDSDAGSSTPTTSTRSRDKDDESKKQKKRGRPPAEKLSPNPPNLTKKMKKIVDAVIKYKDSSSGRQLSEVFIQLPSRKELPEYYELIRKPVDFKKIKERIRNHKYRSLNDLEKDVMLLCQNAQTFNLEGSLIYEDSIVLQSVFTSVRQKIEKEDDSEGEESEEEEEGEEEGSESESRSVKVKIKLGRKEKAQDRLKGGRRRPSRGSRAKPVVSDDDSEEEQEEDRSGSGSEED
UniProt Q9UBX5, sequence (whole entry, looked up): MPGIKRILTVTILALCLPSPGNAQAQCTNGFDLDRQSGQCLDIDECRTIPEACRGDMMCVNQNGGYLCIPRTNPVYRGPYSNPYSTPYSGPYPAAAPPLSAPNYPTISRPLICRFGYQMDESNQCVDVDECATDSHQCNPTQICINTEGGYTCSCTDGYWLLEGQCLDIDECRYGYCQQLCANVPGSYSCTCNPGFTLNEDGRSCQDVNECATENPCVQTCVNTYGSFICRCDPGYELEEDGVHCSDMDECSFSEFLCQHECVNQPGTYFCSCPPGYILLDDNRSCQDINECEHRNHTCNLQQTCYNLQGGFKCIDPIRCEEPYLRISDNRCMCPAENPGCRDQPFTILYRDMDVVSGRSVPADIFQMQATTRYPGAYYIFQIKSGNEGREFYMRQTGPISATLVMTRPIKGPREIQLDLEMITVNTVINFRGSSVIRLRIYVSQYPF
UniProt P02931, sequence (whole entry, looked up): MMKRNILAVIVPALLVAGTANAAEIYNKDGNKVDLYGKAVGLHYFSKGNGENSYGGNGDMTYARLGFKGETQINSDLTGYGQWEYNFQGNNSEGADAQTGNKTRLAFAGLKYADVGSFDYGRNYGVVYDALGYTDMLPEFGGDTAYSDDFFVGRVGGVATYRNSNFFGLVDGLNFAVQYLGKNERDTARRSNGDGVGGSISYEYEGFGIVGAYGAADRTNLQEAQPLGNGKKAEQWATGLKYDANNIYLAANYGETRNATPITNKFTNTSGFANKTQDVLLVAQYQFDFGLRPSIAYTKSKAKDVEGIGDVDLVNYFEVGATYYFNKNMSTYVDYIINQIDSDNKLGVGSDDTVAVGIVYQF
UniProt P53141, sequence (whole entry, looked up): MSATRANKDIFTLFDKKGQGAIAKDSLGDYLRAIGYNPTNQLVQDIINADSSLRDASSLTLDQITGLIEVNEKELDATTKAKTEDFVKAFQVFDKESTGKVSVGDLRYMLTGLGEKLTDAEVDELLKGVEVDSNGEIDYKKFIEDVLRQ

Substance | partner | assay | test system | conditions | scale | endpoint | result
adenovirus type 5 whole particle (human adenovirus type 5, UniProt P11818) | CXADR (Homo sapiens, UniProt P78310) | qPCR | – | – | baseline: input virus, higher = more bound | virus bound to erythrocytes | 90%
SUV39H1 chromodomain | Histone H3.1 2-14 K9L (Homo sapiens, UniProt P68431) | reporter luciferase | HepG2 | K9L mutant, in cells | – | firefly luciferase signal | 2.1e+07 p/s/cm^2/sr
B1 (Fmnl3 555-954 N646A) | ACTA1, pyrene label (Oryctolagus cuniculus, UniProt P68135) | elongation termination | – | formin 100 nM, together with: capping protein 20 nM | – | capping protein protection time | 208 s
Sambucus nigra agglutinin-I (Sambucus nigra) | KLK3 (Homo sapiens, UniProt P07288) | SPR | – | – | – | surface coverage | 10.1 pg·mm^−2
YAEGTFISDYSIAMDKIRQQDFVNWLLAQKGKKNDWKHNLTQ (Gip mature (Rattus norvegicus, UniProt Q06145)) | Gipr (Mus musculus, UniProt Q0P543) | radioligand binding | – | – | – | Ki | 0.27 nM
B2 (rof 1-84) | rho 1-419 (Escherichia coli, UniProt P0AG30) | rho termination, inhibitor | – | – | lower = more inhibition | terminated transcripts | 16%
B3 (FBN1 147-489) | FBLN5 42-448 (Homo sapiens, UniProt Q9UBX5) | ELISA | – | – | – | binding | binds
B4 (colicin N T and R domains) | ompF mature, trimer (Escherichia coli, UniProt P02931) | ITC | – | 25 °C | – | molecule per partner | 2.76
MPS3 fragment (Saccharomyces cerevisiae) | HTZ1 (Saccharomyces cerevisiae, UniProt Q12692) | nuclear localisation | yeast | 180 min, together with: rapamycin | lower = less nuclear | N/C ratio | 0.51 N/C ratio (normalised)
B5 (Fmnl3 555-954 R570A) | ACTA1, TMR label (Oryctolagus cuniculus, UniProt P68135) | AUC | – | KCl 50 mM | – | fraction bound | 0.98 fraction
CTCF fragment (Homo sapiens) (sequence not shown) | T1, STAG2/RAD21 STAG2 80-1060, RAD21 281-420 (Homo sapiens) | ITC | – | pH 7.7, 25 °C, NaCl 150 mM | – | ΔH | -55.1 kJ/mol
B6 (IRF1) | SMARCA4 (Homo sapiens, UniProt P51532) | proximity ligation | hSAECs | – | baseline: mock-infected, higher = more interaction | PLA signal increase | 2.8 fold
RIGI (Homo sapiens, UniProt O95786) | DDX58 F539A/K858Q/K909Q (human, UniProt O95786) | co-IP | Huh7 RIG-I knockdown | 24 h, not purified | baseline: RIG-I F539A, higher = greater reduction in binding | relative binding | > 4 fold
B7 (Fmnl3 555-954 K645A) | ACTA1, TMR label (Oryctolagus cuniculus, UniProt P68135) | AUC | – | KCl 50 mM | – | fraction bound | 0.98 fraction
BUD4 fragment (Saccharomyces cerevisiae) | MLC1 (Saccharomyces cerevisiae, UniProt P53141) | two-hybrid | – | – | higher = stronger interaction | beta-galactosidase activity | 66.08 ± 0.5 Miller units
B8 (HNRNPH1 192-280) | DHX9 1151-1270 (Homo sapiens, UniProt Q08211) | trapping in hydrogel, hydrogel binding | – | pH 7.5, 4 °C, NaCl 200 mM | – | binding | binds
C3a mature (UniProt P01027) | C3ar1 (Mus musculus, UniProt O09047) | glucose-stimulated insulin secretion, agonist | islets | 100 nM | baseline: no C3a, higher = more secretion | insulin secretion increase | 40%
cinC (UniProt Q8VQF4) | fpr (Escherichia coli, UniProt P28861) | absorbance loss | – | 20 µM, pH 7.8, together with: NADPH 200 µM | – | electron transfer rate | 48.1 min⁻¹

Excerpt of the above:
Substance | partner | assay | test system | conditions | scale | endpoint | result
B2 (rof 1-84) | rho 1-419 (Escherichia coli, UniProt P0AG30) | rho termination, inhibitor | – | – | lower = more inhibition | terminated transcripts | 16%
B3 (FBN1 147-489) | FBLN5 42-448 (Homo sapiens, UniProt Q9UBX5) | ELISA | – | – | – | binding | binds
